Published values gathered from unrelated publications.
A part holds a random share of what one study measured. Positions count from the first letter of the parent shown.
Chain of UniProt Q9Y4K4 (whole entry, looked up): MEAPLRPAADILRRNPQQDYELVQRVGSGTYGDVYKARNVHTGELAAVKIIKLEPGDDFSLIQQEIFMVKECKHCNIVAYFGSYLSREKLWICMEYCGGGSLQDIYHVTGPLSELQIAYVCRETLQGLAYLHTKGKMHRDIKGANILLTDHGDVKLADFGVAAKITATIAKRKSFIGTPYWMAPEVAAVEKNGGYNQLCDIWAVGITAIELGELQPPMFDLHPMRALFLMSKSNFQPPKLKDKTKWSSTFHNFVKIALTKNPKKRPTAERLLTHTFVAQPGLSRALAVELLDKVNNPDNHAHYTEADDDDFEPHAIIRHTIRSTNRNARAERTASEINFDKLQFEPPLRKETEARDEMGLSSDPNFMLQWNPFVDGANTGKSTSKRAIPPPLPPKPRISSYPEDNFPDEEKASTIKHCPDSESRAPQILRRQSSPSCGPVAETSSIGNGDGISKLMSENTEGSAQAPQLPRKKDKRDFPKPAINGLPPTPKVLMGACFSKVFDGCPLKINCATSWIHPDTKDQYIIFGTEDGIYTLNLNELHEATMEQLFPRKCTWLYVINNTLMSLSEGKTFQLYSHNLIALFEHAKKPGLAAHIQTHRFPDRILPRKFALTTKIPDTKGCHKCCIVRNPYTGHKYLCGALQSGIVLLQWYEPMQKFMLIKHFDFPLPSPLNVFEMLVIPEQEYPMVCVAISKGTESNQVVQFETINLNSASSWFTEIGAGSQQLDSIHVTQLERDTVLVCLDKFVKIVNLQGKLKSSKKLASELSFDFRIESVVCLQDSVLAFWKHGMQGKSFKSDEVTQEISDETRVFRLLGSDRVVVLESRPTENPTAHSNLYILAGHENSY

Sample 1 — technique: protein binding microarray; molecule type: double-stranded DNA, one strand shown; matrix: in vitro; concentration: not given; reference: not given; direction: higher = stronger binding
Target: Histone acetyltransferase KAT6A, winged helix 2, GST fusion (KAT6A, Homo sapiens, UniProt Q92794, residues 85-181)
Setting: 8-mer, flanks averaged, mean of 2 arrays, mostly near background
Construct (chain): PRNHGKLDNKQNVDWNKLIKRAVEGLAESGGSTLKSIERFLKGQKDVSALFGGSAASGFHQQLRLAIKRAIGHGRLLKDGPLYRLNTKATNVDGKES
With `CGTCAAGA` the E-score was -0.0232.
With `CTAATGAC` the E-score was -0.226.
The E-score of `CACATTGC` is reported as -0.0015.
With `CGACTGTA` the E-score was -0.192.
The E-score of `CATTACTC` is reported as -0.0153.
For `CAATTCTA`, the E-score was -0.128.
For `CGCTCCAC`, the E-score was 0.0285.
`GCTGGGCA` gave an E-score of 0.189.

Sample 2 — technique: universal PBM; molecule type: double-stranded DNA, one strand shown; matrix: in vitro; concentration: not given; direction: higher = stronger binding
Target: Sal-like protein 4, full length isoform B (SALL4, Homo sapiens, UniProt Q9UJQ4-2, residues 1-616)
Setting: 8-mer, flanks averaged, mean of replicates
For `AATTAATC`, the E-score was 0.276.
The E-score of `ATAGGGCG` is reported as -0.0399.
`GAGGCCGC` gave an E-score of -0.342.
`ACCTGTGA` has an E-score of -0.0875.
With `CGCGTAAG` the E-score was -0.0605.
The E-score of `ACGGAGCG` is reported as -0.272.
The E-score of `ACCGCTAT` is reported as 0.00194.
`AAGACATA` has an E-score of 0.234.

Sample 3 — target: NFE2L3, bZIP domain (human); technique: DHFR protein complementation; matrix: yeast; reference: wild-type JUN-FOS pair; direction: higher = stronger binding
Setting: single substitutions, most at no-binding floor
Parent: JUN, bZIP domain (human); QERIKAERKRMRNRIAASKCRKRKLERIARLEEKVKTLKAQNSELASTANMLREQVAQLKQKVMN; partner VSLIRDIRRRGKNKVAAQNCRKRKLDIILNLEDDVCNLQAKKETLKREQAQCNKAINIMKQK
`L31M` has a binding fitness of -1.43 natural log.
`A46V` gave a binding fitness of -1.58 natural log.
The binding fitness of `R30E` is reported as -1.46 natural log.
For `M51N`, the binding fitness was -1.47 natural log.
For `K36W`, the binding fitness was -1.39 natural log.
`A49G` gave a binding fitness of -1.54 natural log.
For `K34Y`, the binding fitness was -1.54 natural log.
`L45G` has a binding fitness of -1.56 natural log.

Mixed results
For `O=c1cc(-c2cccc3c2Sc2ccccc2S3)oc(N2CCOCC2)c1`, the remaining activity was 93.6% (Mitogen-activated protein kinase kinase kinase kinase 5 (MAP4K5, Homo sapiens, UniProt Q9Y4K4); enzyme activity, inhibitor; 0.5 µM; reference: control).

For quick reference, copied from above (sample 2):
For `AATTAATC`, the E-score was 0.276.
`AAGACATA` has an E-score of 0.234.
